Measured values pooled from the literature.
Lines come from different studies, so protocols differ.
Target: MAP kinase-activated protein kinase 2 (MAPKAPK2, Homo sapiens, UniProt P49137)

SMILES | observed | mode | method | concentration | baseline | endpoint | result
Nc1ncc(-c2cc(-c3cnn(CC(F)(F)F)c3)ncc2F)nc1C(=O)NC1CNCC(F)C1 (stereo not shown) | enzyme activity |  |  | 1 µM | DMSO control | remaining activity | 99.4%
COc1ccc(O)cc1-c1c[nH]c2ncc(-c3cncc(C(=O)N(C)C)c3)cc12 | binding |  | competition with immobilised ligand | 0.2 µM |  | inhibition | -0.41%
Cc1nc2c(F)cc(-c3nc(Nc4ccc(CNC(=O)CCCCCCC(=O)NO)cc4)ncc3F)cc2n1C(C)C | enzyme activity | inhibitor |  | 1 µM |  | inhibition | 13%
Cc1cccc(O[C@H]2CCC[C@@H](C(C)CNCc3ccncc3)C2)c1 (relative stereo) | enzyme activity | inhibitor |  | 1 µM |  | inhibition | 2%
CN1CC[C@@H](COc2cnc(C#N)cc2-c2ccn3nc(NC(=O)C4CC4)cc3c2)C1 | enzyme activity | inhibitor |  | 1 µM |  | inhibition | 15%
Nc1nc(Nc2ccccc2)sc1C(=O)c1ccccc1 | enzyme activity | inhibitor |  | 10 µM |  | remaining activity | 98%
Cc1cccc(-c2ccc3nc(NC(=O)C4CCOCC4)nn3c2)c1 | enzyme activity |  | Dundee kinase panel | 10 µM |  | remaining activity | 93%
Cc1ccc(-c2c(/C=C(\C#N)C(=O)NC(C)C)n(CCCO)c3ncnc(N)c23)cc1 | cell-free assay |  | competition with immobilised ligand | 1 µM |  | remaining binding | 74%
Nc1ncc2c(n1)-c1c([nH]c3ccc(C4=CCOCC4)cc13)CCC2 | binding |  | competition with immobilised ligand | 1 µM |  | remaining binding | 100%
COc1ccc(C(=O)/C=C/c2ccccc2-c2c[nH]c3ccc(C#N)cc23)c(O)c1 | enzyme activity | inhibitor |  | 20 µM |  | inhibition | -10%
COc1cc(Nc2nc(C)cc(-c3cnn4nc(OC)ccc34)n2)cc(C(F)(F)F)c1 |  | inhibitor |  | 1 µM | control | remaining activity | 52%
C=CC(=O)N1CCc2ccc(-n3c(=O)ccc4cnc5ccc(-c6cnn(C)c6)cc5c43)cc21 |  |  | KINOMEscan | 1 µM | DMSO control | remaining binding | 100%
CC(=O)N1c2ccc(-c3ccc(CNC(=O)c4cn5cc(-c6cnc(N)nc6)nc(N6CCOCC6)c5n4)cc3)cc2CC[C@@H]1C |  |  | KINOMEscan | 10 µM |  | remaining binding | 100%
Cc1[nH]nc2c1N=C(c1ccccc1Cl)c1cnc(N3CCOCC3)cc1N2 | enzyme activity | inhibitor |  | 0.5 µM |  | inhibition | 17.3%
CN1CCN(Cc2ccc(NC(=O)c3cccc(C#Cc4cnc(N)c5ncccc45)c3)cc2C(F)(F)F)CC1 | cell-free assay |  | competition with immobilised ligand | 0.5 µM |  | remaining binding | 100%
CNC(=O)C1CCN(c2cc(C)c(F)cc2NC(=O)c2ccc(-c3cc(O)ccc3C)c(C)c2)CC1 | binding |  | competition with immobilised ligand | 1 µM |  | remaining binding | 96%
COc1c(Cl)cccc1Nc1c(-c2ccncc2C#C[C@@]2(C)CCCN2C(=O)/C=C/CN(C)C)[nH]c2c1C(=O)NCC2 | binding |  | competition with immobilised ligand | 3 µM |  | remaining binding | 100%
COc1ccc(NC(=O)Nc2ccc3c(c2)C(=O)N(C(C)CO)CC(C)C(CN(C)Cc2ccc4c(c2)OCO4)O3)cc1 (stereo not shown) | binding |  | competition with immobilised ligand | 10 µM |  | remaining binding | 80%
C=CC(=O)Nc1cccc(-c2cnc3[nH]cc(C(=O)NC(C)(C)C)c3n2)c1 | enzyme activity | inhibitor |  | 0.1 µM |  | inhibition | 6%
CNC1C[S+]2CC[S+]3CC[S+](C1)[Ru-4]321([N]=C=S)[n]2c3ccc(OC)cc3c3c4c(c5cc(F)c[n+]1c5c32)C(=O)NC4=O (stereo not shown) |  |  | KinomeScan | 0.1 µM | untreated | remaining binding | 90%
NC(=O)[C@@H](O)C[C@H]1CCc2sc3ncnc(O[C@H]4CC[C@H](N5CCOCC5)CC4)c3c21 | enzyme activity | inhibitor |  | 10 µM |  | inhibition | 1%
Cc1cccc(-c2ccc3nc(NC(=O)C4CCCO4)nn3c2)c1 (stereo not shown) | enzyme activity |  | Dundee kinase panel | 10 µM |  | remaining activity | 95%

Excerpt of the above:
SMILES | observed | mode | method | concentration | baseline | endpoint | result
CN1CCN(Cc2ccc(NC(=O)c3cccc(C#Cc4cnc(N)c5ncccc45)c3)cc2C(F)(F)F)CC1 | cell-free assay |  | competition with immobilised ligand | 0.5 µM |  | remaining binding | 100%
